Measurements from different studies.
Lines come from different studies, so protocols differ.

Compound | species | medium | route | dose | setting | AUC(0-t)
O=C(c1nc2n(n1)[C@H](c1ccccc1)C[C@@H]2F)C1CC1 | human | plasma | oral | 25 mg | single dose, fasted, healthy volunteers | 4110 ng·h/mL
CC(C)(Sc1ccncc1-c1ccc(C#N)c2ccccc12)C(=O)O | male human | plasma | oral | 15 mg | single dose, fasted | 212 ng·h/mL
CN(C)C/C=C/C(=O)Nc1cc2c(Nc3ccc(F)c(Cl)c3)ncnc2cc1O[C@H]1CCOC1 | human | plasma | oral | 40 mg | multiple doses, once daily, steady state, patients | 498 ng·h/mL
C[C@H](N)C(=O)N1C[C@H](CCCB(O)O)[C@](N)(C(=O)O)C1 | human | plasma | oral | 50 mg twice daily | multiple doses, patients | 8120 ng·h/mL
Nc1ncc(-c2cnn(CCO)c2)c2scc(-c3ccc(NC(=O)Nc4cccc(F)c4)cc3)c12 | human | plasma | oral | 340 mg | patients | 5760 ng·h/mL
C/C(=C\c1csc(C)n1)[C@@H]1C[C@@H]2O[C@]2(C)CCC[C@H](C)[C@H](O)[C@@H](C)C(=O)C(C)(C)[C@@H](O)CC(=O)N1 | human | plasma | intravenous | 70 mg | patients | 2650 ng·h/mL
CS(=O)(=O)n1cc2c(n1)CN([C@H]1CO[C@H](c3cc(F)ccc3F)[C@@H](N)C1)C2 | male human | plasma | oral | 400 mg | single dose, fasted, healthy volunteers | 323 µM·h
CNC(=O)c1ccc(-c2cnc3ncc(Cc4ccc5ncccc5c4)n3n2)cc1F | human | plasma | oral | 400 mg twice daily | multiple doses, steady state, patients | 22000 ng·h/mL
CCCOc1ccc([C@H]2CNC(=O)N2c2ccc3[nH]cnc3c2)cc1 | human | plasma | oral | 1200 mg | single dose, fed | 16800 ng·h/mL
CNc1nc(Nc2ccc(-n3cnc(C)n3)c(OC)c2)nc2c1CC[C@H]2c1ccc(F)cc1 | human | plasma | oral | 1200 mg | single dose, healthy volunteers | 50100 ng·h/mL
Cc1c(Cl)c(C)[n+]([O-])c(Cl)c1-c1noc(-c2cc(O)c(O)c([N+](=O)[O-])c2)n1 | male human | plasma | oral | 25 mg | single dose, fasted, healthy volunteers | 2130 ng·h/mL
CCc1nc(C(N)=O)c(Nc2ccc(N3CCC(N4CCN(C)CC4)CC3)c(OC)c2)nc1NC1CCOCC1 | human | plasma | oral | 40 mg | single dose, fasted, healthy volunteers | 1740 ng·h/mL
CS(=O)(=O)n1cc2c(n1)CN([C@H]1CO[C@H](c3cc(F)ccc3F)[C@@H](N)C1)C2 | male human | plasma | oral | 5 mg | single dose, fasted | 5.34 µM·h
CCCCCN1C[C@H](O)[C@@H](O)[C@H](O)[C@@H]1CO | human | plasma | oral | 2000 mg | single dose, fasted, healthy volunteers | 101000 ng·h/mL
O=C(NCCN1CCCC1)c1cc(-c2ccc(CN3CCOCC3)cc2)nc2ccc(F)cc12 | human | blood | oral | 600 mg | single dose, whole blood | 9510 ng·h/mL
CCOc1ccc(Cc2cc([C@@H]3S[C@H](CO)[C@@H](O)[C@H](O)[C@H]3O)c(OC)cc2C)cc1 | male human | plasma | oral | 25 mg | single dose, fasted, healthy volunteers | 8480 ng·h/mL
CC[C@@H]1C(=O)N(C)c2cnc(Nc3ccc(C(=O)N[C@H]4CC[C@H](N5CCN(CC6CC6)CC5)CC4)cc3OC)nc2N1C(C)C | human | plasma | intravenous | 200 mg | patients, infusion | 3320 ng·h/mL
CN(C(=O)n1cnc(-c2ccc[n+]([O-])c2)c1)C1CCCCC1 | human | plasma | oral | 40 mg | single dose | 8750 ng·h/mL

Excerpt of the above:
Compound | species | medium | route | dose | setting | AUC(0-t)
Cc1c(Cl)c(C)[n+]([O-])c(Cl)c1-c1noc(-c2cc(O)c(O)c([N+](=O)[O-])c2)n1 | male human | plasma | oral | 25 mg | single dose, fasted, healthy volunteers | 2130 ng·h/mL
CCCCCN1C[C@H](O)[C@@H](O)[C@H](O)[C@@H]1CO | human | plasma | oral | 2000 mg | single dose, fasted, healthy volunteers | 101000 ng·h/mL
